Experimental data gathered from unrelated publications.
HDAC1: Histone deacetylase 1 (HDAC1, Homo sapiens, UniProt Q13547)
Sequence of UniProt Q13547 (whole entry, looked up): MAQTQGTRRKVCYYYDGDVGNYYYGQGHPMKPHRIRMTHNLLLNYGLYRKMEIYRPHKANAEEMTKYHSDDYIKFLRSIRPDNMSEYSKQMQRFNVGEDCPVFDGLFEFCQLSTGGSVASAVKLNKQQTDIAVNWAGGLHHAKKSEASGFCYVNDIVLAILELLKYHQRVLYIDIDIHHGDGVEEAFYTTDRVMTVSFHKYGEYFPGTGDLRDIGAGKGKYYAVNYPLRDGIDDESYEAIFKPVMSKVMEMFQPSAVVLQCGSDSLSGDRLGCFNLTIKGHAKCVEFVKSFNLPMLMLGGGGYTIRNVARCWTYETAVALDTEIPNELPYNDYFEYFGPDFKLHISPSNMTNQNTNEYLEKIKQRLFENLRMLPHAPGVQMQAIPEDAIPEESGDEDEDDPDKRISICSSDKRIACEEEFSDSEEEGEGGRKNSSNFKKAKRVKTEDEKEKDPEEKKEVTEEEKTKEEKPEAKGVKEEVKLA
USP51: Ubiquitin carboxyl-terminal hydrolase 51 (USP51, Homo sapiens, UniProt Q70EK9)
Sequence of UniProt Q70EK9 (whole entry, looked up): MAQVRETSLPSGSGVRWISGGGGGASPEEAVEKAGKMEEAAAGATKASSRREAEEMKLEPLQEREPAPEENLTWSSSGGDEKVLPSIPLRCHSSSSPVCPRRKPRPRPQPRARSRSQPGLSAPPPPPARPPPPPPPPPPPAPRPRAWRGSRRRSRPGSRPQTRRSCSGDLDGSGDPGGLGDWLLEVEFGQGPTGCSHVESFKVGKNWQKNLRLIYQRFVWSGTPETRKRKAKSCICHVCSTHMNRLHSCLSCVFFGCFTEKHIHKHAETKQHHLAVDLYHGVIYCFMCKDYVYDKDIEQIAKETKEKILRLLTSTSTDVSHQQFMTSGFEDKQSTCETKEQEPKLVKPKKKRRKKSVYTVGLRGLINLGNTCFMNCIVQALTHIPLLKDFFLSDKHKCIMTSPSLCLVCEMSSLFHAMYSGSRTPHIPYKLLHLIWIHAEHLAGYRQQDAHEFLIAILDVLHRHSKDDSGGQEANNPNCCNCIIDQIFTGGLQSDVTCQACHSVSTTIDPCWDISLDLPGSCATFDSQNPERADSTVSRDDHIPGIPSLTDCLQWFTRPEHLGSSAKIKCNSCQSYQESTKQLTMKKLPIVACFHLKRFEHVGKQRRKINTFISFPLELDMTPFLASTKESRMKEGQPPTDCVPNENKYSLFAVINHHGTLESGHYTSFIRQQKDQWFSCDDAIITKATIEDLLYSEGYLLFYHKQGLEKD
SIRT6: NAD-dependent protein deacylase sirtuin-6 (SIRT6, Homo sapiens, UniProt Q8N6T7)
Sequence of UniProt Q8N6T7 (whole entry, looked up): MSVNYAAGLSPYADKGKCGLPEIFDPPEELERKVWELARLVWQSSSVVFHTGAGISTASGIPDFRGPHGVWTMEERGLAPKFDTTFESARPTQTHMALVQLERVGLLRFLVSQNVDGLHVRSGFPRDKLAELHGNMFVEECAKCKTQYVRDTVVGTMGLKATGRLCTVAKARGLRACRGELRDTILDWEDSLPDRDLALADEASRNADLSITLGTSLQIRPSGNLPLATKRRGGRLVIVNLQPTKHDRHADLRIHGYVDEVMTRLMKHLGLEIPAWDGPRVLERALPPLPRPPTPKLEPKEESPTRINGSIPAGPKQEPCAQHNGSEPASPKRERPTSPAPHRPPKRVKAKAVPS
PDE10A: cAMP and cAMP-inhibited cGMP 3',5'-cyclic phosphodiesterase 10A (PDE10A, Homo sapiens, UniProt Q9Y233)
Sequence of UniProt Q9Y233 (whole entry, looked up): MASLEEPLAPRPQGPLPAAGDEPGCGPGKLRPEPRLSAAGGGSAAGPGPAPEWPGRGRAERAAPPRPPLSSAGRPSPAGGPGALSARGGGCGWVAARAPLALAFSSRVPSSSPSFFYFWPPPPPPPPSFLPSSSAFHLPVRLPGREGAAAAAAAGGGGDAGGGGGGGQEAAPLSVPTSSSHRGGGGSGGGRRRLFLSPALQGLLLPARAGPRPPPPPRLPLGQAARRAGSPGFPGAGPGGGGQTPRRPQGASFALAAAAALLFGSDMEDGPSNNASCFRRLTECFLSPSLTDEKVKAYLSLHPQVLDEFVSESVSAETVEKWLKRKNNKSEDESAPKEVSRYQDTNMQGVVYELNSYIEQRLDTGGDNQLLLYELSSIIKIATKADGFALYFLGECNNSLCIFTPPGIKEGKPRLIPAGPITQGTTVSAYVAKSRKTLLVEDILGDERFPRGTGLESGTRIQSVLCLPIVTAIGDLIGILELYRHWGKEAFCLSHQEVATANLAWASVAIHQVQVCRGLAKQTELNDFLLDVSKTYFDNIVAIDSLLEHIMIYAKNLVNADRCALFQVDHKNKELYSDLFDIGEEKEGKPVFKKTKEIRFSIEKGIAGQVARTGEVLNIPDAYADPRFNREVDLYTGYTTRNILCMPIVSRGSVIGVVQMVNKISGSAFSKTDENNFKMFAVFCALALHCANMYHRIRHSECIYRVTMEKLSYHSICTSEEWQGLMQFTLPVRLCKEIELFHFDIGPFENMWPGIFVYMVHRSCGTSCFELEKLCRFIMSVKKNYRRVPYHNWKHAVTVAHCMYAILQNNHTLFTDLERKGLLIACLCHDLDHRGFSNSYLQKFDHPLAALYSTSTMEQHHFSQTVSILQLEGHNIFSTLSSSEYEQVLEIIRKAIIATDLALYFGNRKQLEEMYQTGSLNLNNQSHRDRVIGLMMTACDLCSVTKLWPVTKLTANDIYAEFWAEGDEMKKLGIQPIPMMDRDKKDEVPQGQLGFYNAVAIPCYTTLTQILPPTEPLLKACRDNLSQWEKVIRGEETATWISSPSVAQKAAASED
SLC6A4: Sodium-dependent serotonin transporter (SLC6A4, Homo sapiens, UniProt P31645)
Sequence of UniProt P31645 (whole entry, looked up): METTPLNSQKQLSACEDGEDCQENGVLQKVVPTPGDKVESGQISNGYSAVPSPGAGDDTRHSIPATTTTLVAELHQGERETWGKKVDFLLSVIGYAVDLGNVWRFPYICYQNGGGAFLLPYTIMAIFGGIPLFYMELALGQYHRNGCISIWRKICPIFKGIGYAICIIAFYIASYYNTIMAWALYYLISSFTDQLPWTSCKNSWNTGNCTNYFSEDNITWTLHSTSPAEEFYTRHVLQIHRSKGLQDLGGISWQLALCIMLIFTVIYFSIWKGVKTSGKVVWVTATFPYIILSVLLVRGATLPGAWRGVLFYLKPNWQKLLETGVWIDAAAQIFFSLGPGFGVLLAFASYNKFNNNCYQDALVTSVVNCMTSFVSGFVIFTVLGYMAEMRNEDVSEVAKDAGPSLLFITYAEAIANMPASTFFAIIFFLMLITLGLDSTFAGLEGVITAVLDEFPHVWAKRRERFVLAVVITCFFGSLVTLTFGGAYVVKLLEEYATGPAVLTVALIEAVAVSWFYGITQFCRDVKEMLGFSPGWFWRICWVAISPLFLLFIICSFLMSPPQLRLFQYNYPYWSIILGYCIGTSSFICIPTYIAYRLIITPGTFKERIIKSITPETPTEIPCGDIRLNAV
HDAC6: Protein deacetylase HDAC6 (HDAC6, Homo sapiens, UniProt Q9UBN7)
Sequence of UniProt Q9UBN7 (whole entry, looked up): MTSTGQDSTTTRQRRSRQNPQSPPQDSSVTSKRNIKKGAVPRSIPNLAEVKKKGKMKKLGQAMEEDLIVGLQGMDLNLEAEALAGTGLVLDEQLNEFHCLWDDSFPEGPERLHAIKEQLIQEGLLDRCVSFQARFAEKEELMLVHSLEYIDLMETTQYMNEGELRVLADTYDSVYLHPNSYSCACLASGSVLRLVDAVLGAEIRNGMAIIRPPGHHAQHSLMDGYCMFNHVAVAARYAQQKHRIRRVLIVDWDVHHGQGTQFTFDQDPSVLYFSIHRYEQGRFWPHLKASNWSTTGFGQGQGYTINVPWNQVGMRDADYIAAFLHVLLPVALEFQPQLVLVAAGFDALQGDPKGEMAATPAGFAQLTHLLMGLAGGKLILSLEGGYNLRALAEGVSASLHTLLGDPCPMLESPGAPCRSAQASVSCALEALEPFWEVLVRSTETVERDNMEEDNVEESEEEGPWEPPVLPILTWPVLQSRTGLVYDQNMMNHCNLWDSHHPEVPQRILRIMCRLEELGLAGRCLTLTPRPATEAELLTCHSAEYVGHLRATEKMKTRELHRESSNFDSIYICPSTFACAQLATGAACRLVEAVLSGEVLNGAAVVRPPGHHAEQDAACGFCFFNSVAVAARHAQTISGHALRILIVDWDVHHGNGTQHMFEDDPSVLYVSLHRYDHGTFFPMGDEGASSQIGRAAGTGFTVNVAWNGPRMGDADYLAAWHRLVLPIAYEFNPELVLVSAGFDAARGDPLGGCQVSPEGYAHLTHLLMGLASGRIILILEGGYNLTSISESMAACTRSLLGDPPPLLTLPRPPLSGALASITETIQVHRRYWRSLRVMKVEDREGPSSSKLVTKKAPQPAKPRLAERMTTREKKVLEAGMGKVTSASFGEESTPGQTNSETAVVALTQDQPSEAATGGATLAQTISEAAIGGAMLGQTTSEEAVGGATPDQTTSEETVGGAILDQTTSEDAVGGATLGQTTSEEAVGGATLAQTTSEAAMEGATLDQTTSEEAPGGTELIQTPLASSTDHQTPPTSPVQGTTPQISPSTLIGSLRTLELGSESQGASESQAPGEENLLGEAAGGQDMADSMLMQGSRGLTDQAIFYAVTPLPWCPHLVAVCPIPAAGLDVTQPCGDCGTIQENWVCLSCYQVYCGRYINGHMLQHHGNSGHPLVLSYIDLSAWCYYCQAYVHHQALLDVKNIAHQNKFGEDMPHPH
MPO: Myeloperoxidase (MPO, Homo sapiens, UniProt P05164)
PTGS2: Prostaglandin G/H synthase 2 (PTGS2, Homo sapiens, UniProt P35354)
Sequence of UniProt P35354 (whole entry, looked up): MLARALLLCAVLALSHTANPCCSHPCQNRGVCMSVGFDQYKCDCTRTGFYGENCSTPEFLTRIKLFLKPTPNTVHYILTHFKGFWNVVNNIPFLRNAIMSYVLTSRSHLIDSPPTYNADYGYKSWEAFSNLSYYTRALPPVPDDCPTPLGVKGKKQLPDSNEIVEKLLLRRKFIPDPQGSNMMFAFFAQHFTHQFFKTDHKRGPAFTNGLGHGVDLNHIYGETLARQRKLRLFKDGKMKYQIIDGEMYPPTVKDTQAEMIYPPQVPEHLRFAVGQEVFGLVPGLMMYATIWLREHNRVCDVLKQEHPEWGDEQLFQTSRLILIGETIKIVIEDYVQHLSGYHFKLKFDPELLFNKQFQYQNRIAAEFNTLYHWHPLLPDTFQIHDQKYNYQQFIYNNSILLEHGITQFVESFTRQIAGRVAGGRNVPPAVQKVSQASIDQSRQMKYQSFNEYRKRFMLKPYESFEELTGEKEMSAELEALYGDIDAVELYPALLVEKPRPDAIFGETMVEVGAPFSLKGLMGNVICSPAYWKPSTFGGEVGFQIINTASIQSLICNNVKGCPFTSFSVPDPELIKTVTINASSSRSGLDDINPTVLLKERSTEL
SCN1A: Sodium channel protein type 1 subunit alpha (SCN1A, Homo sapiens, UniProt P35498)

SMILES | tested on | test | conditions | quantity | result
O=C(NO)c1cccc(OS(=O)(=O)Oc2ccc(C(F)(F)F)cc2)c1 | HDAC1 | enzyme activity, inhibitor, fluorescence | 10 µM | inhibition | 47%
CCCCCCCCCCCC1=C(O)C(=O)C=C(O)C1=O | USP51 | enzyme activity, inhibitor | 5 µM | inhibition | 23%
NC(=O)c1ccc(C(=O)NOCc2ccc(Sc3ccc(C(F)(F)F)cc3)c(C(F)(F)F)c2)cc1 | SIRT6 | enzyme activity, inhibitor, fluorescence | 100 µM | inhibition | 90.6%
C1=C/COCc2cc(ccc2OCCN2CCCC2)Nc2nccc(n2)-c2cccc(c2)COC/1 | EGFR (Homo sapiens, UniProt P00533, L861Q) | binding | 0.1 µM | remaining binding | 83%
COc1ccc(Cc2nccc3ccccc23)cc1OC | PDE10A | enzyme activity, inhibitor, FP | 0.1 µM | inhibition | 0%
NCCS(=O)(=O)O | USP51 | enzyme activity, inhibitor | 5 µM | inhibition | 15%
CCOC(=O)[C@@]12C[C@@H]1[C@@H](n1cnc3c(NCCO)nc(I)nc31)[C@H](O)[C@@H]2O | SLC6A4 | ligand displacement, radioligand | 10 µM | inhibition | 13%
COc1cc2ncnc(Cc3cccc(-c4ccccc4CO)c3)c2cc1OC | PDE10A | enzyme activity, inhibitor, FP | 0.1 µM | inhibition | 44%
Cc1c(OS(=O)(=O)Oc2ccccc2)cccc1C(=O)NO | HDAC6 | enzyme activity, inhibitor, fluorescence | 10 µM | inhibition | 40%
NC(=O)c1ccccc1O | USP51 | enzyme activity, inhibitor | 5 µM | inhibition | 4%
CC(C)OCCn1c(=S)[nH]c(=O)c2[nH]ccc21 | MPO | enzyme activity, inhibitor, fluorescence | 3.333 µM | inhibition | 99.3%
COc1cc(-c2cc(=O)c3c(O)cc(O)cc3o2)ccc1O | PTGS2 | enzyme activity, inhibitor | 0.24 µg/mL | inhibition | 0%
S=C(NN=Cc1ccc(N2CCCCC2)cc1)Nc1ccc(Br)cc1 | DHFR (Homo sapiens, UniProt P00374) | enzyme activity, inhibitor | 500 µM | inhibition | 86.3%
O=c1cc(-c2ccc(O)cc2)oc2cc(O)cc(O)c12 | PTGS2 | enzyme activity, inhibitor | 0.24 µg/mL | inhibition | 6.24%
CCCCC(=O)Nc1ccc(-c2ccc3ncn(CCC)c(=O)c3c2)cn1 | EGFR (Homo sapiens, UniProt P00533, L858R) | binding, competition with immobilised ligand | 0.5 µM | remaining binding | 100%
CC(C)c1[nH]c2nc(N)nn2c(=O)c1Cc1ccc(Cl)c(Cl)c1 | CCR5 (Homo sapiens, UniProt P51681) | β-arrestin recruitment, antagonist | 1 µM | inhibition | 80%
CC[C@H](C)[C@H](NC(=O)[C@H](CCC(N)=O)NC(=O)[C@@H](NC(=O)[C@H](CCSC)NC(=O)[C@H](CCCCN)NC(=O)[C@H](CO)NC(=O)[C@@H](NC(=O)[C@H](CCSC)NC(=O)[C@H](CC(C)C)NC(=O)[C@H](CC(N)=O)NC(=O)[C@@H](NC(=O)[C@@H](NC(=O)[C@H](CO)NC(=O)[C@H](CC(C)C)NC(=O)[C@H](C)NC(=O)[C@H](CCCNC(=N)N)NC(=O)[C@H](CCC(=O)O)NC(=O)[C@H](Cc1ccc(O)cc1)NC(=O)[C@H](Cc1ccccc1)NC(=O)[C@H](C)NC(=O)[C@H](CC(N)=O)NC(=O)[C@@H](N)CCCCN)[C@@H](C)CC)[C@@H](C)CC)[C@@H](C)O)C(C)C)C(=O)N[C@@H](CC(N)=O)C(=O)N[C@H](C(=O)O)C(C)C | GSK3B (Homo sapiens, UniProt P49841) | enzyme activity, inhibitor, radiometric | 250 µM | inhibition | -27%
CC(C)NCC(O)COc1cccc2ccccc12 (stereo not drawn) | SCN1A | ion current, inhibitor, patch clamp | 30 µM | inhibition | 52.8%
Cc1cc(OS(=O)(=O)Oc2cccc(C(C)(C)C)c2)cc(C(=O)NO)c1 | HDAC6 | enzyme activity, inhibitor, fluorescence | 10 µM | inhibition | 50%
COc1cc([C@@H]2c3cc4c(cc3[C@@H](O[C@@H]3O[C@@H]5CO[C@@H](C)O[C@H]5[C@H](O)[C@H]3O)[C@H]3COC(=O)[C@H]23)OCO4)cc(OC)c1O | USP51 | enzyme activity, inhibitor | 5 µM | inhibition | 0%
Cc1cc(OS(=O)(=O)Oc2ccc(C(C)(C)C)cc2C)cc(C(=O)NO)c1 | HDAC8 (Homo sapiens, UniProt Q9BY41) | enzyme activity, inhibitor, fluorescence | 10 µM | inhibition | 30%
CNc1ncc2c(/C=C/C(=O)N3CCC(OC)CC3)nn(Cc3cccc(C(F)(F)F)c3)c2n1 | PKN1 (Homo sapiens, UniProt Q16512) | enzyme activity, inhibitor, radiometric | 1 µM | remaining activity | 89%
O=C(NO)c1cc(F)cc(OS(=O)(=O)Oc2ccccc2)c1 | HDAC5 (Homo sapiens, UniProt Q9UQL6) | enzyme activity, inhibitor, fluorescence | 10 µM | inhibition | 27%
Oc1cccc(Nc2nc(-c3ccc(F)cc3F)cs2)c1 | OPRD1 (Homo sapiens, UniProt P41143) | ligand displacement | 10 µM | inhibition | 46.7%
Cc1cc([C@@H](C)Nc2ccccc2C(=O)O)c2nc(N3CCC(F)(F)CC3)c(C#N)c(=O)n2c1 | EPHA2 (Homo sapiens, UniProt P29317) | binding, competition with immobilised ligand | 1 µM | remaining binding | 100%
Cc1cc(O)c(-c2ccc([C@@H](C)CN(C)C)cc2)c2c1[nH]c(=O)c1sccc12 | FER (Homo sapiens, UniProt P16591) | enzyme activity, inhibitor | 0.1 µM, lysate | inhibition | 0.734%

SMILES | tested on | test | conditions | quantity | result
Nc1c(Br)cc(Br)cc1CN[C@H]1CC[C@H](O)CC1 | KCNA1 (Homo sapiens, UniProt Q09470) | ion current, inhibitor, patch clamp | 3 µM | inhibition | -8.92%
CN1CC(Oc2cnc(C#N)cc2-c2ccn3nc(NC(=O)C4CC4)cc3c2)C1 | STK25 (Homo sapiens, UniProt O00506) | enzyme activity, inhibitor | 1 µM | inhibition | -21%
C=CC(=O)N1CCC(COCC(=O)N2CCN(c3nc(-c4cnc(N)nc4C(F)F)nc(N4CCOC[C@@H]4C)n3)CC2)CC1 | CDK17 (Homo sapiens, UniProt Q00537) | binding, competition with immobilised ligand | 1 µM | remaining binding | 100%
O=C(NOCc1ccc(C(F)(F)F)cc1)c1ccc(-c2ncc[nH]2)cc1 | SIRT6 | enzyme activity, inhibitor, fluorescence | 100 µM | inhibition | 14.6%
CC[C@H](C)[C@H](NC(=O)[C@H](CCC(N)=O)NC(=O)[C@H](CC(C)C)NC(=O)[C@H](CCSC)NC(=O)[C@H](CCCCN)NC(=O)[C@H](CO)NC(=O)[C@H](CO)NC(=O)[C@H](CCSC)NC(=O)[C@H](CC(C)C)NC(=O)[C@H](CC(N)=O)NC(=O)[C@@H](NC(=O)[C@@H](NC(=O)[C@H](CO)NC(=O)[C@H](CC(C)C)NC(=O)[C@H](CS)NC(=O)[C@H](CCCNC(=N)N)NC(=O)[C@H](CC(=O)O)NC(=O)[C@H](Cc1c[nH]c2ccccc12)NC(=O)[C@H](Cc1ccccc1)NC(=O)[C@H](C)NC(=O)[C@H](CCC(=O)O)NC(=O)[C@@H](N)CCCCN)C(C)C)[C@@H](C)CC)C(=O)N[C@@H](CC(N)=O)C(=O)N[C@@H](C)C(=O)O | Cyclin-dependent kinase 5, with p35 (CDK5, Homo sapiens, UniProt Q00535) | enzyme activity, inhibitor, radiometric | 250 µM | inhibition | 53%
C[C@H]1O[C@H](O[C@H]2[C@H](O)[C@@H](O)[C@@H](O[C@H]3[C@H](O)[C@@H](O)C(O)O[C@@H]3CO)O[C@@H]2CO)[C@H](O)[C@@H](O)[C@@H]1N[C@H]1C=C(CO)[C@@H](O)[C@H](O)[C@H]1O (stereo partly drawn) | MAL12 (Saccharomyces cerevisiae S288c, UniProt P53341) | enzyme activity, inhibitor, absorbance | 200 µg/mL | inhibition | 58.5%
Nc1ncnc2occ(-c3ccc(NC(=O)Nc4cc(C(F)(F)F)ccc4F)cc3)c12 | EGFR (Homo sapiens, UniProt P00533, del752-759) | cell-free assay | 20 µM | remaining signal | 58%
COc1cc(/C=C/C(=O)CC(=O)/C=C/c2ccc(O)c(OC)c2)ccc1O | USP51 | enzyme activity, inhibitor | 5 µM | inhibition | 0%
O=c1cc(-c2ccc(O)c(O)c2)oc2cc(O)cc(O)c12 | PTGS2 | enzyme activity, inhibitor | 1.95 µg/mL | inhibition | 78.8%
O=C(NO)c1cc(F)cc(OS(=O)(=O)Oc2ccc(C(F)(F)F)cc2)c1 | HDAC1 | enzyme activity, inhibitor, fluorescence | 5 µM | inhibition | 12%
COc1c2ccoc2cc2oc(=O)ccc12 | USP51 | enzyme activity, inhibitor | 5 µM | inhibition | 4%
COc1ccc(-c2cc(=O)c3c(O)cc(O[C@@H]4O[C@H](CO)[C@@H](O)[C@H](O)[C@H]4O)cc3o2)cc1O | PTGS2 | enzyme activity, inhibitor | 15.63 µg/mL | inhibition | 100%
CCc1nn(C)c2nc(-c3ccc(C(=O)O)cc3)nc(NCc3ccc(F)cc3)c12 | PDE10A | enzyme activity, inhibitor, radiometric | 10 µM | inhibition | 36.5%
COc1ccc2ncnc(Cc3cccc(-c4ccccc4)c3)c2c1 | PDE10A | enzyme activity, inhibitor, FP | 0.1 µM | inhibition | 0%
Cc1cc(C)c(OS(=O)(=O)Oc2cccc(C(=O)NO)c2)c(C)c1 | HDAC1 | enzyme activity, inhibitor, fluorescence | 10 µM | inhibition | 28%
COc1cc([C@H]2OC[C@H]3[C@@H]2CO[C@@H]3c2cc(OC)c(O)c(OC)c2)cc(OC)c1O | PTGS2 | enzyme activity, inhibitor | 15.63 µg/mL | inhibition | 100%
CN(O)N=Nc1ccc(S(=O)(=O)Nc2nccs2)cc1 |  | ABTS scavenging | 240 µg/mL | inhibition | 92.2%
COc1cc(-c2cncc3c2CN(C)Cc2cc(N4CCNCC4)ccc2-3)cc(OC)c1OC | PTK2B (Homo sapiens, UniProt Q14289) | enzyme activity, inhibitor | 1 µM | remaining activity | 100%
Cc1c(OS(=O)(=O)Oc2ccc(Br)cc2)cccc1C(=O)NO | HDAC6 | enzyme activity, inhibitor, fluorescence | 10 µM | inhibition | 31%
CCOC(=O)[C@@]12C[C@@H]1[C@@H](n1cnc3c(NCCCCCCc4ccccc4)nc(C#Cc4ccc(Cl)s4)nc31)[C@H](O)[C@@H]2O | SLC6A4 | ligand displacement, radioligand | 10 µM | inhibition | 10%
NC/C(=C\F)COc1cccc(Cn2c(=S)[nH]c(=O)c3[nH]cnc32)c1 | MPO | enzyme activity, inhibitor, fluorescence | 1.111 µM | inhibition | 98.9%
COc1cc([C@H]2Oc3cc([C@H]4Oc5cc(O)cc(O)c5C(=O)[C@@H]4O)ccc3O[C@@H]2CO)ccc1O | USP51 | enzyme activity, inhibitor | 5 µM | inhibition | 13%
COC(=O)c1ccc(O)cc1 | PTGS2 | enzyme activity, inhibitor | 1.95 µg/mL | inhibition | 0%
Nc1nc(=O)c2nc(CNc3ccc(C(=O)N[C@@H](CCC(=O)O)C(=O)O)cc3)cnc2[nH]1 | USP51 | enzyme activity, inhibitor | 5 µM | inhibition | 0%
O=C1NC(=O)C(c2ccccc2)(c2ccccc2)N1 | SCN1A | ion current, inhibitor, patch clamp | 10 µM | inhibition | 5.75%

Repeated from above:
SMILES | tested on | test | conditions | quantity | result
O=C(NO)c1cccc(OS(=O)(=O)Oc2ccc(C(F)(F)F)cc2)c1 | HDAC1 | enzyme activity, inhibitor, fluorescence | 10 µM | inhibition | 47%
NC(=O)c1ccccc1O | USP51 | enzyme activity, inhibitor | 5 µM | inhibition | 4%
CC(C)c1[nH]c2nc(N)nn2c(=O)c1Cc1ccc(Cl)c(Cl)c1 | CCR5 (Homo sapiens, UniProt P51681) | β-arrestin recruitment, antagonist | 1 µM | inhibition | 80%
NC/C(=C\F)COc1cccc(Cn2c(=S)[nH]c(=O)c3[nH]cnc32)c1 | MPO | enzyme activity, inhibitor, fluorescence | 1.111 µM | inhibition | 98.9%
COc1ccc(-c2cc(=O)c3c(O)cc(O[C@@H]4O[C@H](CO)[C@@H](O)[C@H](O)[C@H]4O)cc3o2)cc1O | PTGS2 | enzyme activity, inhibitor | 15.63 µg/mL | inhibition | 100%
COc1cc([C@H]2OC[C@H]3[C@@H]2CO[C@@H]3c2cc(OC)c(O)c(OC)c2)cc(OC)c1O | PTGS2 | enzyme activity, inhibitor | 15.63 µg/mL | inhibition | 100%
CC[C@H](C)[C@H](NC(=O)[C@H](CCC(N)=O)NC(=O)[C@@H](NC(=O)[C@H](CCSC)NC(=O)[C@H](CCCCN)NC(=O)[C@H](CO)NC(=O)[C@@H](NC(=O)[C@H](CCSC)NC(=O)[C@H](CC(C)C)NC(=O)[C@H](CC(N)=O)NC(=O)[C@@H](NC(=O)[C@@H](NC(=O)[C@H](CO)NC(=O)[C@H](CC(C)C)NC(=O)[C@H](C)NC(=O)[C@H](CCCNC(=N)N)NC(=O)[C@H](CCC(=O)O)NC(=O)[C@H](Cc1ccc(O)cc1)NC(=O)[C@H](Cc1ccccc1)NC(=O)[C@H](C)NC(=O)[C@H](CC(N)=O)NC(=O)[C@@H](N)CCCCN)[C@@H](C)CC)[C@@H](C)CC)[C@@H](C)O)C(C)C)C(=O)N[C@@H](CC(N)=O)C(=O)N[C@H](C(=O)O)C(C)C | GSK3B (Homo sapiens, UniProt P49841) | enzyme activity, inhibitor, radiometric | 250 µM | inhibition | -27%
